Measured values of several laboratories.
Every numbered part comes from another study and shows a few of its results, in no order.

Set 1
Target: Sal-like protein 4, full length isoform A (SALL4, Homo sapiens, UniProt Q9UJQ4, residues 1-1053)
Sequence of UniProt Q9UJQ4 (whole entry, looked up): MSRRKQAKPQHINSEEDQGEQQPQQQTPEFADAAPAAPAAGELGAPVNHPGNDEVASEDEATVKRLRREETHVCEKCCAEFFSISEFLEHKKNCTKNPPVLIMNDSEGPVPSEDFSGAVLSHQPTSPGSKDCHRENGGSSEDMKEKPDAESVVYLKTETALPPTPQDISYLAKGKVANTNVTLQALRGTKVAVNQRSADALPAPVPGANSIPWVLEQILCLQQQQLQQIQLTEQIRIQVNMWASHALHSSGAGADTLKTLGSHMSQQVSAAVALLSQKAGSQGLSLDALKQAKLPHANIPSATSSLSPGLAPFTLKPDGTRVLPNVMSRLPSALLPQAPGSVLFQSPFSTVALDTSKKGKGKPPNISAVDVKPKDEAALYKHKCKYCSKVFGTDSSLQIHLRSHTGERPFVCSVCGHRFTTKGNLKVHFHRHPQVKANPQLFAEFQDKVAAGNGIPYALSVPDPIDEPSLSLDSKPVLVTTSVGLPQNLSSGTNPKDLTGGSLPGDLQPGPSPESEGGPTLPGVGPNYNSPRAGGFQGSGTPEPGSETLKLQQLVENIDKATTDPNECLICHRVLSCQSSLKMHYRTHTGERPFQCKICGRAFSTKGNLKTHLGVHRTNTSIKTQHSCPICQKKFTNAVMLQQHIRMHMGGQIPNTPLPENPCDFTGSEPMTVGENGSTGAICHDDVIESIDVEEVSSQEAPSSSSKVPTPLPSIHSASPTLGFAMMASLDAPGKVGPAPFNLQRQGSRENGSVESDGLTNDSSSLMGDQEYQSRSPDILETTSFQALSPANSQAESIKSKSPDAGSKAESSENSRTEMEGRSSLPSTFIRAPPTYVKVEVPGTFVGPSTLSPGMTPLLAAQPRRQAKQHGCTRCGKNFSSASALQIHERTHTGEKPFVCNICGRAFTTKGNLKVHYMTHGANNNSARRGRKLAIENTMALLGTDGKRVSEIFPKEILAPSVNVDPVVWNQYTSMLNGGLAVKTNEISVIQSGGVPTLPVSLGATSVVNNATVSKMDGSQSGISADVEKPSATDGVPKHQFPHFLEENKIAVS
Technique: universal PBM
Form: double-stranded DNA, one strand shown
Matrix: in vitro
Tested at: 600 nM
Setting: 8-mer, flanks averaged, mean of replicates
Reading: higher = stronger binding
With `GCCTGGCC` the E-score was -0.323.
`GCAGATCC` has an E-score of -0.105.
For `AACCTCGT`, the E-score was 0.0578.
With `ATTACTGA` the E-score was 0.275.
`TATCCAGA` gave an E-score of 0.0147.
`AAACCGGT` has an E-score of -0.185.
The E-score of `TCGCGTAA` is reported as 0.126.
With `ATTTATGG` the E-score was 0.374.
The E-score of `TCGGGAAA` is reported as -0.0237.
With `CCGGCGCA` the E-score was -0.283.
For `GCCCCGGA`, the E-score was -0.367.
With `AACCCATC` the E-score was -0.217.
`ACCCCAAA` gave an E-score of -0.0993.
For `ACTTCGAC`, the E-score was 0.0311.
The E-score of `CTCCGAGC` is reported as -0.169.
The E-score of `GAAAAATC` is reported as 0.147.
`AGTACCCC` gave an E-score of -0.275.
`GTTTCACA` has an E-score of 0.127.
`GTGTGCGA` gave an E-score of -0.134.
`TCAGTAGA` gave an E-score of 0.061.
With `AGTGTGCG` the E-score was -0.151.
`GACGTGTA` has an E-score of -0.0327.
The E-score of `CTAACGTC` is reported as -0.0243.
`CCCCCACG` gave an E-score of -0.255.
With `AAATGTCC` the E-score was 0.183.

Set 2
Target: RNA binding protein fox-1 homolog 2, RRM domain, GST-SBP tag (RBFOX2, Homo sapiens, UniProt O43251-10, residues 100-194)
Technique: RNA Bind-n-Seq
Form: RNA
Matrix: in vitro
Tested at: 365 nM
Setting: natural RNA segment, single round, ends assumed
Baseline: no-protein control
Reading: higher = stronger binding
Shared flanks, not repeated: GGGAGUUCUACAGUCCGACGAUC … UGGAAUUCUCGGGUGCCAA
Residues (chain): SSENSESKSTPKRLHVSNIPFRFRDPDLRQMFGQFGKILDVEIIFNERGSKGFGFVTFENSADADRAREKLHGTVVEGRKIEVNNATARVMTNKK
Under “RBNS enrichment (R)”, `AUCUCCAUUAUCCCGUGCACAUAAGCCAAUCCAGUUGAAUGUGGACAUUACGUUCAAGUGGGCCUCCUGGAACUUAAGAACAAGCACCUCUCCUGUCCCCUUCUGUGUGC` is recorded as 0.521.
`CUUGCCAGUUCUUCAGCUCUAGGACUUGUAGCUUUAAGCAAACGGUGUGGCAUGGGUUGAGUGUGGCCACCUGCAGGAUGUGCAGGGCUGCCUCAGAAGCUGGCUGGGGA` — result for “RBNS enrichment (R)”: 1.18.
`UUUGGUGCUGUGUGUGGUAAGAGACUUGUUCCUAGUGGAUCAAUGAACCAUCUCUUCUGGGCAGUUUUGUUGAAAAUAAAGGUUUCUCUUUGAUUUCAAGAAUGACCAAA`: “RBNS enrichment (R)” 0.357.
Under “RBNS enrichment (R)”, `UCUGGCAUUGGCAAAAAACCAGUAGAAGUGAAUUGUUAGCUGAUGGCCAGGGGGUGUGAUAACAAAUUGUCCUCAAGUAUCCCAUGUAAUUUUUAUUUAAACCCUUGCAC` is recorded as 0.594.
`UACCCUGUCUUCUUGCCUGUGGCCCCCCUCCUUUCUGAAAGUUAGUUCUCUCCGCAUUCUUUAGGAGGAUUCAGGGGCGGCCUAGUGGAAGACAGUGGGCUCCAUGCCUC` — result for “RBNS enrichment (R)”: 0.986.
`CCACAGUAUCACACGUGGAACCGCAGACAGGGCCCAGAAGCUUUAGAGGUAUGAGGCUGCAGAACCGGAGAGAUUUUCCUCUGUGCAGUGCUCUCUGGCUAAAGUCACGG`: “RBNS enrichment (R)” 0.417.
For `CUUUCAAUCUGAAAAUUAAAGACAUUGGAGAGAAAGGCUAACCACUUAAUGGUGCUUAAAAAUCGGGGCACUUAAAAUAAGUUUACGGCCAAAGGUGCAGCAGUGCUUAU`, “RBNS enrichment (R)” read 0.309.
For `UGGGUGGGCAAUGGCCACCAUGUCUGCACACACCAGAAAUGGACAUUUUCAUAUGCAAUGGAAAACAGCCACAAAAAAACCUACCUUAUAUGGAAGUUGUAGCCCUCUGC`, “RBNS enrichment (R)” read 0.235.

Set 3
Target: Interferon regulatory factor 5, full length, phosphomimetic (IRF5, Homo sapiens, UniProt Q13568-2, residues 1-514, S451D/S453D/S456D/S462D)
Technique: protein-binding microarray
Form: double-stranded DNA, one strand shown
Matrix: in vitro
Tested at: 940 nM top
Setting: 60-bp whole probe
Added: salmon DNA 0.4 mg/ml
Baseline: random background probes
Reading: higher = stronger binding
Shared flanks, not repeated: GCCTAGCAC … GTCTTGATTCGCTTGACGCTGCTG
Under “fitted relative affinity”, `GCCGATCTCAGTATCGAGACGTGCTAG` is recorded as 2.76 z-score.
`TTAGGACTGGACAATGGGTTAGTGCTA` — result for “fitted relative affinity”: -0.486 z-score.
`GACGGACTAGGGTATCGGGACGTGCTA`: “fitted relative affinity” -0.0231 z-score.
`GACGGTTTCCGTTTCGGGACGTGCTAG` — result for “fitted relative affinity”: 2.94 z-score.
For `GACGGACAGCTACTGCTGACGTGCTAG`, “fitted relative affinity” read -0.834 z-score.
`TTAGGCTTCGACTATCGGTTAGTGCTA` — result for “fitted relative affinity”: -0.19 z-score.
`TCATGAATGTGTCTTAAACTGTGCTAG`: “fitted relative affinity” -0.185 z-score.
For `TCAATGATTTTTTTCATACTGTGCTAG`, “fitted relative affinity” read 0.497 z-score.
For `TCACATCTCTGTCCGTGACTGTGCTAG`, “fitted relative affinity” read 0.516 z-score.
For `TCATTTTATGCTTTCTTACTGTGCTAG`, “fitted relative affinity” read 1.41 z-score.
`TCATTTTTCTGAACCATACTGTGCTAG`: “fitted relative affinity” 0.638 z-score.
`TCAAGTCTCAACCCCCAAACTGTGCTA`: “fitted relative affinity” 1.05 z-score.
For `TCATACTTCTGTTTTTGACTGTGCTAG`, “fitted relative affinity” read 0.381 z-score.
`TTAGGACTGGGACTGGGTTGGTGCTAG`: “fitted relative affinity” -0.203 z-score.
`CCTGGCTTCATGTTGCTCTCCGTGCTA`: “fitted relative affinity” -0.356 z-score.
For `GACGGACTGGACACTTGGGACGTGCTA`, “fitted relative affinity” read -0.45 z-score.
For `TCATATACCCATGTAGAACTGTGCTAG`, “fitted relative affinity” read 0.15 z-score.
`TTACGACTGGACACTGGGTTAGTGCTA` — result for “fitted relative affinity”: -0.0809 z-score.
For `ATGTTCACTGTGTACCGTCTGTGCTAG`, “fitted relative affinity” read -0.157 z-score.

Set 4
Target: Histone acetyltransferase KAT6A, winged helix 2, GST fusion (KAT6A, Homo sapiens, UniProt Q92794, residues 85-181)
Technique: protein binding microarray
Form: double-stranded DNA, one strand shown
Matrix: in vitro
Tested at: not given
Setting: 8-mer, flanks averaged, mean of 2 arrays, mostly near background
Baseline: not given
Reading: higher = stronger binding
Target sequence (chain): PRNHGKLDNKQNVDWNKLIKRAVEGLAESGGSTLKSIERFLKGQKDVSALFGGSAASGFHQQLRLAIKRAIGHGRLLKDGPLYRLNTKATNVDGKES
The E-score of `ACAGGACA` is reported as 0.143.
`GTCCAGAC` gave an E-score of -0.144.
For `AGCGTTCA`, the E-score was -0.22.
The E-score of `CACGGAAC` is reported as 0.0436.
The E-score of `ATCCATCG` is reported as -0.18.
`AGAACGTA` has an E-score of 0.0165.
For `ATCCCGCG`, the E-score was 0.14.
`ATGCATTC` has an E-score of -0.0405.
`CCACCACG` has an E-score of 0.0166.
For `AGCACAAC`, the E-score was 0.107.
`AAATCACT` has an E-score of 0.115.
For `GTCATTCA`, the E-score was -0.124.
The E-score of `CGTAGAGC` is reported as -0.069.
`ATTACGGA` gave an E-score of -0.0137.
For `AACGAGGC`, the E-score was 0.0533.
The E-score of `ATTCGTAG` is reported as 0.0808.
The E-score of `TAACTAGA` is reported as -0.0364.
The E-score of `ACAAAGCG` is reported as 0.176.
The E-score of `ATGGAGAG` is reported as -0.0922.

Excerpt of the above (set 2):
Under “RBNS enrichment (R)”, `AUCUCCAUUAUCCCGUGCACAUAAGCCAAUCCAGUUGAAUGUGGACAUUACGUUCAAGUGGGCCUCCUGGAACUUAAGAACAAGCACCUCUCCUGUCCCCUUCUGUGUGC` is recorded as 0.521.
`CUUGCCAGUUCUUCAGCUCUAGGACUUGUAGCUUUAAGCAAACGGUGUGGCAUGGGUUGAGUGUGGCCACCUGCAGGAUGUGCAGGGCUGCCUCAGAAGCUGGCUGGGGA` — result for “RBNS enrichment (R)”: 1.18.
`UUUGGUGCUGUGUGUGGUAAGAGACUUGUUCCUAGUGGAUCAAUGAACCAUCUCUUCUGGGCAGUUUUGUUGAAAAUAAAGGUUUCUCUUUGAUUUCAAGAAUGACCAAA`: “RBNS enrichment (R)” 0.357.
Under “RBNS enrichment (R)”, `UCUGGCAUUGGCAAAAAACCAGUAGAAGUGAAUUGUUAGCUGAUGGCCAGGGGGUGUGAUAACAAAUUGUCCUCAAGUAUCCCAUGUAAUUUUUAUUUAAACCCUUGCAC` is recorded as 0.594.
`UACCCUGUCUUCUUGCCUGUGGCCCCCCUCCUUUCUGAAAGUUAGUUCUCUCCGCAUUCUUUAGGAGGAUUCAGGGGCGGCCUAGUGGAAGACAGUGGGCUCCAUGCCUC` — result for “RBNS enrichment (R)”: 0.986.
`CCACAGUAUCACACGUGGAACCGCAGACAGGGCCCAGAAGCUUUAGAGGUAUGAGGCUGCAGAACCGGAGAGAUUUUCCUCUGUGCAGUGCUCUCUGGCUAAAGUCACGG`: “RBNS enrichment (R)” 0.417.
For `CUUUCAAUCUGAAAAUUAAAGACAUUGGAGAGAAAGGCUAACCACUUAAUGGUGCUUAAAAAUCGGGGCACUUAAAAUAAGUUUACGGCCAAAGGUGCAGCAGUGCUUAU`, “RBNS enrichment (R)” read 0.309.
For `UGGGUGGGCAAUGGCCACCAUGUCUGCACACACCAGAAAUGGACAUUUUCAUAUGCAAUGGAAAACAGCCACAAAAAAACCUACCUUAUAUGGAAGUUGUAGCCCUCUGC`, “RBNS enrichment (R)” read 0.235.
